Measurements pooled from the literature.
Each numbered part is a random draw from the data of one study; scales do not carry over between parts. Changes are numbered by the printed parent chain.

Block 1
Target: Sal-like protein 4, full length isoform A (SALL4, Homo sapiens, UniProt Q9UJQ4, residues 1-1053)
UniProt Q9UJQ4, sequence (whole entry, looked up): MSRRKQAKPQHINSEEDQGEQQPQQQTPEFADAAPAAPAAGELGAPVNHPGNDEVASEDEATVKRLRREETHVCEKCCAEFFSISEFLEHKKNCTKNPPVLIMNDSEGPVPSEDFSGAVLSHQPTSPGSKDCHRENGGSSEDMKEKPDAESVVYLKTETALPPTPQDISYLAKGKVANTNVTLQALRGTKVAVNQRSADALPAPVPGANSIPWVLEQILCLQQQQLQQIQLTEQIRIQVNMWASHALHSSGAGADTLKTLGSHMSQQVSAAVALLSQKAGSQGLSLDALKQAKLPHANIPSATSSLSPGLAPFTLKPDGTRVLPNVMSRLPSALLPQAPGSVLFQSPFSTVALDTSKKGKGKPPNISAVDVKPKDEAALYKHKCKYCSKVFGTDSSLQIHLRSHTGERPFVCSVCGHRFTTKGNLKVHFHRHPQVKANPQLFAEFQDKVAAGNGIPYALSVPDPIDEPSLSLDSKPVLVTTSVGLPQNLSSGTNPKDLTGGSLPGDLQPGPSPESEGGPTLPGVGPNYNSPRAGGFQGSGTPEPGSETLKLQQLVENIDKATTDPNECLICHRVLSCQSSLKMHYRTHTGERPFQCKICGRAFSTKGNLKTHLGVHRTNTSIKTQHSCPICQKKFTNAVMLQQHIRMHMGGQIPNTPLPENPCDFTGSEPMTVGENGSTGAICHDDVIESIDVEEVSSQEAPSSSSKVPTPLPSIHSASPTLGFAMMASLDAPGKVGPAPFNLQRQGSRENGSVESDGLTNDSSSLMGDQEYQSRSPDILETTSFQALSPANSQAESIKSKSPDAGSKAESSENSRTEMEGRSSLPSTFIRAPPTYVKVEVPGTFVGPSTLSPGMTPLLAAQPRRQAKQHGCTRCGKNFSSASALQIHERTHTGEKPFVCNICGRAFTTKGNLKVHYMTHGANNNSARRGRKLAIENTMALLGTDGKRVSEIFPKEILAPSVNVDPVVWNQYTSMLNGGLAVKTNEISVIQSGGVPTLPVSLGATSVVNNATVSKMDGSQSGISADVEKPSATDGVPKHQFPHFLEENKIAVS
Method: universal PBM
Molecule type: double-stranded DNA, one strand shown
Matrix: in vitro
Concentration: 600 nM
Notes: 8-mer, flanks averaged, mean of replicates
Direction: higher = stronger binding
`AGCAGACC` gave an E-score of -0.182.
With `CCAACAAA` the E-score was 0.137.
For `CCACCTCA`, the E-score was -0.185.
With `ATCCACAT` the E-score was 0.244.

Block 2
Target: RNA binding protein fox-1 homolog 2, RRM domain, GST-SBP tag (RBFOX2, Homo sapiens, UniProt O43251-10, residues 100-194)
Method: RNA Bind-n-Seq
Molecule type: RNA
Matrix: in vitro
Concentration: 365 nM
Notes: natural RNA segment, single round, ends assumed
Relative to: no-protein control
Direction: higher = stronger binding
Residues (chain): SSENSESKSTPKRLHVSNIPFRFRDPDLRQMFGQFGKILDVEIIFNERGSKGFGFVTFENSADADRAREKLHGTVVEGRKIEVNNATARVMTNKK
`GGGAGUUCUACAGUCCGACGAUCGAGAGCUGCCUUAUAUUCCUACAUUCCAGGCCAGAACCAGCACAGGACUGAACACAUCCCUGGUUGUAAUGUCCAUUUCCAUCUUCCCCGUCUCCCUUUCCACAUCAAGGUGGAAUUCUCGGGUGCCAA` — result for “RBNS enrichment (R)”: 0.863.
Under “RBNS enrichment (R)”, `GGGAGUUCUACAGUCCGACGAUCAGAGACUCAGUUUACCUUAGUGCCUUAGAGGAUGCUAGGUCCUCUGACUGACAUUCCUCAGUGGUCCUCACAGGUGGUUAUAGGGGGGCUGCCUCUCACCUCCGAGCACUUGGAAUUCUCGGGUGCCAA` is recorded as 0.244.
For `GGGAGUUCUACAGUCCGACGAUCACAACUUUCUUUUGUAAAUUUUUCUUUCAUGCCAAAAAACAUGCGGGCAAUUUGUUGAUGAGGUGAAUUAGUUAUCCCUCUUCUUGUAGAAGACCCUUUAGCUACCCCUCUGGAAUUCUCGGGUGCCAA`, “RBNS enrichment (R)” read 0.407.
`GGGAGUUCUACAGUCCGACGAUCGUGAACUCUGUGGAGGGAGGCCCAGAAUGGGUGCUUUCACCAAGAAUUUGUCUGUGUACAACUCUAGAUGGAGUGGGCCAGCAGUAGCUGCCAGUCUUUCUCCCCUGCAGUGGAAUUCUCGGGUGCCAA` — result for “RBNS enrichment (R)”: 0.354.

Block 3
Target: CCNA1, cyclin fold, Cln2 fusion (human)
Method: yeast growth competition, sequencing
Matrix: yeast
Notes: weak parent motif
Relative to: not given
Direction: higher = stronger binding
Starting sequence: ORC1 docking peptide (human); PRARKRLELGNLG; partner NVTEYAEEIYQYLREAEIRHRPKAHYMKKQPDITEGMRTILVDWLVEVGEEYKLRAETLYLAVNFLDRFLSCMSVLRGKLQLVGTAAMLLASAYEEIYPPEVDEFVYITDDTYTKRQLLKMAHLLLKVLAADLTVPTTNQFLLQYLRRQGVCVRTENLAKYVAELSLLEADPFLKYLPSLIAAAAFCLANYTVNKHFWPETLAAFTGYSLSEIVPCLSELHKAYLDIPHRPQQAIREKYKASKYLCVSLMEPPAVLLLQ
For `P1S`, “normalised enrichment score” read 0.187.
For `L12R`, “normalised enrichment score” read 0.406.
`P1H`: “normalised enrichment score” 0.241.
Under “normalised enrichment score”, `N11I` is recorded as 0.323.
Under “normalised enrichment score”, `L9H` is recorded as 0.48.

Further values, each from its own experiment
`PhoQ, residues 284 288 289 292 302 303 TLMATV` gave a fold induction of 1.98 (PhoP, residues 12 14 15 18 19 SQCLL (Escherichia coli, UniProt P23836); Sort-seq, refers to: YFP reporter; E. coli; PhoQ-PhoP variant library, added: 10 µM Mg2+; relative to: high Mg2+ state, higher = stronger signaling).
